Experimental data of several laboratories.
Every numbered part comes from another study and shows a few of its results, in no order. Positions count from the first letter of the parent shown.

Block 1
Target: Fragile X messenger ribonucleoprotein 1, C-terminal low-complexity region (Fmr1, Mus musculus, UniProt P35922)
Method: RNA Bind-n-Seq
Form: RNA
Sample: in vitro
Tested at: 200 nM
Setting: whole 134-nt RNA, ends assumed
Added: 150 mM LiCl
Reference: input library
Direction: higher = stronger binding
Library: 7-deaza-guanosine replaces G
All sequences stand within: GGGAGUUCUACAGUCCGACGAUC … UGGAAUUCUCGGGUGUCAAGG
| Sequence | log2 enrichment |
| --- | --- |
| UGUACAAACACUUUCCCAUCCCCCUCAUUAACCGGCUGGAGAAGCACUAUCUGGAUAUCAACACGGUGCUGGAGAAAUGGCAGAAGAGCA | 0.525 |
| CAAAAACAACACGCACCCACACAGACACAGAGGGAAGGGGUUGGGAUGGGGACAGGGUGCACAGCAGGGCGGGGUAGGACCCCAGCCCCU | 1.11 |
| CUGUGCUACACAUCGUAUGUACCGAAUCGGGAAAAAAAGGAAAAAAAGGGGAAAAAAAGGGGAAAGUAUUAUGUUACGCCGUUCGGAUCU | 0.333 |
| AGCAUGCAGGUGGGCAUCUUUGGGAAGUGGGGCAAGGGGGGGAUAGGGAGGGGGGUAACACUUUGGGAACAGGUGGUCCCAGGUCGUUUC | 1.22 |
| CACAGACAACACGCACCCACACAGACACAAAGGGAAGGGGUUGGGAUGGGGACAGGGUGCACAGCAGGGCGGGGUAGGACCCCAGCCCCU | 0.0902 |
| UCCUGUGCUACACAUCGUAUGUACCGAAUCAAACCCCCCCAAACCCAAACCCCCCCAAAAAAGUAUUAUGUUACGCCGUUCGGAUCUGCA | 2.16 |

Block 2
Target: Sal-like protein 4, full length isoform A (SALL4, Homo sapiens, UniProt Q9UJQ4, residues 1-1053)
Chain of UniProt Q9UJQ4 (whole entry, looked up): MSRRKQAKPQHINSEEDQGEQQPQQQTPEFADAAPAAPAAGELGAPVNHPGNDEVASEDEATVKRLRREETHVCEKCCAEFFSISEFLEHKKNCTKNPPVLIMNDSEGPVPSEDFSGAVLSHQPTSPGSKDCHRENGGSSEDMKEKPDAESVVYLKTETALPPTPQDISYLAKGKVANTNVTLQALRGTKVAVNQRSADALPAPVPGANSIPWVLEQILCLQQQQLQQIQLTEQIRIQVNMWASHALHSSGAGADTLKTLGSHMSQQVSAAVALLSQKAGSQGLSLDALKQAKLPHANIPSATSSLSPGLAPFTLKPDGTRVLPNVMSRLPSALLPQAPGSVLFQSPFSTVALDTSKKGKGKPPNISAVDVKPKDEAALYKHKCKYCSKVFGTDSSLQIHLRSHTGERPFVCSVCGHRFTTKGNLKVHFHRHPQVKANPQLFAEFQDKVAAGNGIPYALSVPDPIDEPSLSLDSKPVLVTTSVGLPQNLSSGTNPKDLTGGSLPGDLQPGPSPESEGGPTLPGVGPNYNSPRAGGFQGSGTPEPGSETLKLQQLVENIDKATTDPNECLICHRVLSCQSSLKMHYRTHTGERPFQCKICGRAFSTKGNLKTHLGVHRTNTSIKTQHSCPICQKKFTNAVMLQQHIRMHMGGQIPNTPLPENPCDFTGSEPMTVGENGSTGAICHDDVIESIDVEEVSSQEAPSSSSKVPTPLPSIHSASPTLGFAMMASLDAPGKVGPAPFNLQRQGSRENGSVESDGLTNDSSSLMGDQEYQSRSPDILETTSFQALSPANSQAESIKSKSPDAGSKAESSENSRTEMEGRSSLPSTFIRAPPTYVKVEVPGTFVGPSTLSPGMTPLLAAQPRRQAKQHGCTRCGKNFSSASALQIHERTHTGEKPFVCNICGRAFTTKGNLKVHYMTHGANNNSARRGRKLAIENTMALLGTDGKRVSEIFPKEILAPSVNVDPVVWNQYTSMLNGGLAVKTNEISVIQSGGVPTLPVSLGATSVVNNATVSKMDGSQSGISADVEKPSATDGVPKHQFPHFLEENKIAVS
Method: universal PBM
Form: double-stranded DNA, one strand shown
Sample: in vitro
Tested at: 600 nM
Setting: 8-mer, flanks averaged, mean of replicates
Direction: higher = stronger binding
| Sequence | E-score |
| --- | --- |
| ACACCTAT | 0.0873 |
| CAGTAATA | 0.366 |
| CCCGCAGC | -0.363 |
| GATTGTCA | 0.191 |
| GACTAAGC | -0.147 |
| CCACCGCC | -0.288 |
| GGAGTCCA | -0.162 |
| CGTAGCCC | -0.25 |
| AAAGGACG | 0.0124 |
| ATAGCCTC | -0.0609 |
| CCGTTGCC | -0.302 |
| GCACGTCA | -0.0923 |
| ATATTGCG | 0.326 |
| AGCAGCAT | 0.0102 |
| ATGATTCC | 0.276 |
| AACGCGCT | -0.243 |
| GTCCCAAA | -0.0694 |

Block 3
Target: Hepatocyte nuclear factor 3-alpha (Foxa1, Mus musculus, UniProt P35582, residues 1-468, full length assumed)
Chain of UniProt P35582 (whole entry, looked up): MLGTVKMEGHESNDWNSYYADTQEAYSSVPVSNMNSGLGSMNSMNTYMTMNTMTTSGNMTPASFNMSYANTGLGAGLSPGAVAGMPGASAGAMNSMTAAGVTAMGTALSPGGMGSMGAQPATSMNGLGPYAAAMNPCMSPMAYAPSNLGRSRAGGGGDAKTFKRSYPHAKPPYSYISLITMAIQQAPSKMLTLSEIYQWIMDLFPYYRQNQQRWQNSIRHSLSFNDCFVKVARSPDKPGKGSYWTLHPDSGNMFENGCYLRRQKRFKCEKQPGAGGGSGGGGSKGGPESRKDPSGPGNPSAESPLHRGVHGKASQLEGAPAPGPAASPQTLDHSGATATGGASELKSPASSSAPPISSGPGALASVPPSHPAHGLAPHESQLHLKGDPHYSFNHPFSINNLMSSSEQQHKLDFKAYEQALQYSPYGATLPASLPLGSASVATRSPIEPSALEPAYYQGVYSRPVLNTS
Method: EMSA with sequencing
Form: double-stranded DNA, one strand shown
Sample: in vitro
Tested at: 10 and 20 nM
Setting: whole designed probe, mean of two concentrations, ends assumed
Reference: negative control set to 0
Direction: higher = stronger binding
All sequences stand within: GTGAGCGGTGCCCATTGATGGGGAAC … TTTCACTGGGATCGTGGGGAC
| Sequence | normalised bound fraction [ratio] |
| --- | --- |
| GAGTGAGTAAGTGAGTGTGTGTGTGTGTGTGTGTGTGTGTGTGTGTGTGTGTGTGCTGGAGGTATGGCAGCTACCTCTTGCACATAATATTTGAGAGTACATATGTATATATGTGTGTGTATATATATGTGTGTATGTGTATATATACGCACATATATGTGCGTGTATGTGTGTATATACACACGTATGTGTG | 0.205 |
| AGAAGAATAACCAGTGGGGCCAGTCAGGGATGCTTCAGATGTCACAGCAGTACTATGGGCAGCAAGTCTCAATGCAAGGACACTGGTACAATGTAAACAAGCATATTCCATACCACTGTGTCATTTTATATCTGTTAAATGGCAAAAGGCCTGTAGTATCCCTAAAGGAAAGTAAAGCTTAAGGCCACTTTTC | 0.408 |
| ATGAAGGGCTGCCAGTGTAATTTGAACCTCAAATAAACAACAGATAAAACTGTAGTATAAGTATGTCCCATATACGATCATTGCACAACTTTTTGTTTGCCTAATCTGGCAAAGATATTGACTTAACACACACTAATCTGTTGACAGGTAGGTGAAATATTTGAACTTCTACGTTGCTTCTCTAATCCTGTCC | 0.39 |
| TGGTTTTAAAGACTAACAGGATAATGGCGTTTCTTGTTTAGCGGCATAAATTGTGAATGTGTTCCATTAAATTTCCATATGGCATCATGACAATGTAATCTCAGACCATCAAGAAGGTCCATAGACTGGCCACTGAGAGAACTCTGGGGGCCCATTGTGATGCTCTCTGGCTAGTCCATCGGGGTCTACATGA | -0.0483 |
| AGAGCAACTGACAATCTCACACATTGCTAATGGAATAGTGGGTTTGGTGACTTGGAAGTGGGATGTTGAGGGCTTCTTGAAGGTTTTATTCATGTTTACTTTAATTGCCAACATTAGTTCTTACATAGGTATTTTCACAAAATAATGTATTGAGCTGTATACTTACTATTTGTGTACTTTTTCTTAATGCATT | 0.427 |
| TCTTTCACTCAAGTGGTATATCCCACAGCCCTAAAGAAGCAAGGGAAATAAGAATTAGAACTAGACATCCCAGGAGACAAAGAATTCAACAAAGCAAACACACTACGTGCTTAACCAATCCCTTCACTATTTACAGAAAATCTCTCTGGCTCAGGCCGGGCAGTGAGTTCATTTATTTCAACAAAATCAAAGA | 0.289 |
| CTGTAGCCTTTGCAAATAACCTTTTTGAACAAAAACGGCAAAGGCTCTTTCCAAACCCGATCAAAGAGGTATGCAAGACTCTCAGCCACTAAATAAACATTGATGCCTGATGGCAGTAATATGGCTATTTATATTCAGAGCCTGATTTAACCAGTGGCATTCCTGTAATAAGATAATAAGCATGAGCTGTTTA | 0.498 |
| TTTCCAGCCCTTAGTTTCTGGCATTTAACCTGACTCTGGTCCCTGAATGGCATGGGAGTGCTTTCAACCACAGGTTTCCACATTCATGCCACTTGTTTGCTTTTCTGACTCATTCTGATCTACAGAGATCTTTATTTGCTTTGTGTTTCCAATGGAGAAAGAGCTTGGGAAGGGAGGATCCTAATTGTCTAAA | 0.486 |

Block 4
Target: PABPC1L2, full length, GST fusion (mouse, UniProt A0ABA7IW68)
Method: RNAcompete
Form: RNA
Sample: in vitro
Tested at: 20 nM
Setting: 7-mer, probes averaged, single round
Reference: mean of 7-mers
Direction: higher = stronger binding
Construct (chain): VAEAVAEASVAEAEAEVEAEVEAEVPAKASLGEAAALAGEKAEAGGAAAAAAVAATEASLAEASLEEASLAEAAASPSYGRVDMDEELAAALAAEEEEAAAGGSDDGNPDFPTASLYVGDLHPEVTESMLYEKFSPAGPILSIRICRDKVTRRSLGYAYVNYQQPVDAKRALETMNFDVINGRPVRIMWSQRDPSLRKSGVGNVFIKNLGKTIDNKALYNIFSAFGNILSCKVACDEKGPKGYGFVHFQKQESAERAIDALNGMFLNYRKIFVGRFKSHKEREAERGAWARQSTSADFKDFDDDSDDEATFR
| Sequence | 7-mer Z-score |
| --- | --- |
| AAUUGGA | 0.401 |
| AUGUGUA | -0.273 |
| GACCAGA | 0.0642 |
| UCAAGGU | -0.124 |
| GCGUCGA | -0.219 |
| CCUGAAU | -0.371 |
| ACAGCGC | -0.0264 |
| GAGCUGC | -0.208 |
| UGCAGAC | -0.0826 |
| CUUGUCG | -0.396 |
| AUGCAUC | -0.2 |
| CGCCCGA | -0.311 |
| AACACCG | 0.461 |
| ACUGACC | -0.00289 |
| CGCUACC | -0.304 |
| UGAAUAU | -0.112 |
| GUCGCGA | -0.262 |
| GAACACA | 0.191 |
| GCUCCAU | -0.166 |
| GAGUGGA | 0.0696 |
| AGCAACU | -0.0881 |
| AGGCUCU | -0.0899 |
| GCCUUAA | -0.0482 |
| CAAGCUU | -0.271 |
| GUAAUGC | -0.122 |

Block 5
Target: Histone acetyltransferase KAT6A, both winged helices, GST fusion (KAT6A, Homo sapiens, UniProt Q92794, residues 1-181)
Method: protein binding microarray
Form: double-stranded DNA, one strand shown
Sample: in vitro
Tested at: not given
Setting: 8-mer, flanks averaged, mean of 2 arrays, mostly near background
Reference: not given
Direction: higher = stronger binding
Residues (chain): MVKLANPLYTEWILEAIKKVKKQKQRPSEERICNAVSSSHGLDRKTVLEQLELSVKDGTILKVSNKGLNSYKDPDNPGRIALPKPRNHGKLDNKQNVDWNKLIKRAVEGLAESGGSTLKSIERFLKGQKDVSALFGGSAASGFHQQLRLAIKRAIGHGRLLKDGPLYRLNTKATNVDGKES
| Sequence | E-score |
| --- | --- |
| CTCAGGAC | -0.124 |
| GTCCCTAA | -0.096 |
| CTCGTGTA | -0.0773 |
| AGCACTTC | -0.0751 |
| ACCTAGAG | -0.0535 |
| ACAGGAAA | 0.0614 |
| AAAGTGGC | -0.076 |
| CGTCTGAG | -0.0195 |
| AAACGACT | -0.118 |
| AGAGAATC | -0.17 |
| GAAAGCGA | 0.0667 |
| AGTGGGTA | -0.116 |
| ATCCACTA | -0.161 |
| CTACATGA | -0.0118 |
| GATATCGA | -0.141 |
| CCATGACG | 0.0427 |
| CCAACATA | 0.0184 |
| AAGCTGGC | -0.0513 |
| AAGGCGGC | 0.167 |
| GTTCGCGA | 0.222 |
| CCCACCGA | -0.214 |
| TCATCAGA | -0.00266 |
| AGTCCGTC | 0.238 |
| CATGTCGG | 0.0334 |
| GAATAGGC | -0.134 |

Block 6
Target: ABI1, truncated, D143A, DHFR fusion (Arabidopsis thaliana)
Method: DHFR PCA, deep sequencing
Sample: yeast
Setting: methotrexate growth selection, single substitutions
Added: (+)-ABA 0.032 µM
Reference: wild-type fitted maximum
Direction: higher = stronger binding
Parent: PYL1, truncated, DHFR fusion (Arabidopsis thaliana); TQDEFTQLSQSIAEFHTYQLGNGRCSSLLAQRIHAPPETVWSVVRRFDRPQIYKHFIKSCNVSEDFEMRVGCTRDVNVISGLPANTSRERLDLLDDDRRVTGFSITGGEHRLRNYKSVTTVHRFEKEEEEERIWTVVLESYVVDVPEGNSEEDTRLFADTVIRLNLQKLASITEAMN; partner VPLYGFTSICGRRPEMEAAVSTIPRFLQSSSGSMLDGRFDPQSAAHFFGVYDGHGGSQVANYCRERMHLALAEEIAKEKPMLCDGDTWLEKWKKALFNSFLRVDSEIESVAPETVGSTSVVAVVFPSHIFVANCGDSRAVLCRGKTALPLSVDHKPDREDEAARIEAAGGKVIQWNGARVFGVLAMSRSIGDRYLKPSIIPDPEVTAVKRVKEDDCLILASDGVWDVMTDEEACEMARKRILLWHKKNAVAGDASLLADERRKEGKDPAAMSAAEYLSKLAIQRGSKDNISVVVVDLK
| Change | relative binding score [%] |
| --- | --- |
| H55G | 4.21 |
| E130M | 12.9 |
| R74P | 2.02 |
| T106K | -2.58 |
| G23M | 4.28 |
| S104V | -4.09 |
| E67Q | 30.1 |
| L112P | 5.7 |
| D65N | 36.3 |
| S140M | 0.996 |
| Q167R | 21.2 |
| R88M | 0.611 |
| S26D | -2.12 |

For quick reference, copied from above (block 5):
| Sequence | E-score |
| --- | --- |
| CTCGTGTA | -0.0773 |
| AGCACTTC | -0.0751 |
| ACCTAGAG | -0.0535 |
| ACAGGAAA | 0.0614 |
| AAAGTGGC | -0.076 |
| CGTCTGAG | -0.0195 |
| AAACGACT | -0.118 |
| AGAGAATC | -0.17 |
| GAAAGCGA | 0.0667 |
| AGTGGGTA | -0.116 |
| ATCCACTA | -0.161 |
| CTACATGA | -0.0118 |
| GATATCGA | -0.141 |
| CCATGACG | 0.0427 |
| CCAACATA | 0.0184 |
| AAGCTGGC | -0.0513 |
